Results gathered from unrelated publications.
Each numbered part is a random draw from the data of one study; scales do not carry over between parts. Changes are numbered by the printed parent chain.

Block 1
Target: Histone acetyltransferase KAT6A, both winged helices, GST fusion (KAT6A, Homo sapiens, UniProt Q92794, residues 1-181)
Technique: protein binding microarray
Molecule type: double-stranded DNA, one strand shown
Medium: in vitro
Concentration: not given
Setting: 8-mer, flanks averaged, mean of 2 arrays, mostly near background
Reference: not given
Direction: higher = stronger binding
Residues (chain): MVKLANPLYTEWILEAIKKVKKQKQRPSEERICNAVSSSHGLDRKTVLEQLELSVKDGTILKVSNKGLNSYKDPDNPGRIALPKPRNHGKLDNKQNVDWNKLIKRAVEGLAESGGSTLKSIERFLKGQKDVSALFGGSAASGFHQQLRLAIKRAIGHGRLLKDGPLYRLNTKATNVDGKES
| Oligonucleotide | E-score |
| --- | --- |
| CACGCCTG | -0.0908 |
| CTAACGTA | 0.0375 |
| GTAGAACA | -0.14 |
| CAACTGCA | -0.123 |
| AAAGTGCA | -0.0402 |
| GACTAGAA | -0.0962 |
| AAGAACCG | 0.0661 |
| ATTCTTAA | -0.157 |
| GAAGATTC | -0.0308 |
| AGCACGAG | -0.103 |
| CCGGAGAC | 0.168 |
| ACTGTGAT | -0.113 |
| ACCCTCGC | 0.0448 |
| CCACAGCA | -0.0477 |
| CAGCAGTC | -0.0602 |
| ATGTACGG | 0.184 |
| CTTGCAGC | 0.0593 |
| GACAAGAC | 0.0621 |
| AGCGGCCC | 0.133 |
| CTGTATCA | 0.0332 |
| AGAGTAGA | -0.0869 |
| AAATTCTA | -0.0603 |
| CCGTTCCG | 0.285 |
| GATACTCA | -0.0606 |
| AGACTCTC | -0.193 |

Block 2
Target: RNA binding protein fox-1 homolog 2, RRM domain, GST-SBP tag (RBFOX2, Homo sapiens, UniProt O43251-10, residues 100-194)
Technique: RNA Bind-n-Seq
Molecule type: RNA
Medium: in vitro
Concentration: 365 nM
Setting: natural RNA segment, single round, ends assumed
Reference: no-protein control
Direction: higher = stronger binding
Construct (chain): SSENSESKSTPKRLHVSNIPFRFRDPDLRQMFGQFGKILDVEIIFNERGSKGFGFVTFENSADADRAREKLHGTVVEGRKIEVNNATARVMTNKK
| Oligonucleotide | RBNS enrichment (R) |
| --- | --- |
| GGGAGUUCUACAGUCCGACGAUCGCACACAAACUAUGAGCAGACCACUUCAGCUUGAGAAUGCAGUGGGUCUGAAGAUGGUCAAGUCUGUUUGCCUUAGAUUUUGAUGUCACCUAGACAACACUUAAACUCAUUGGAAUUCUCGGGUGCCAA | 13.2 |
| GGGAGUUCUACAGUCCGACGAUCCUUUUCUUUGGACAAUUCACUUUAGAGUCUUUAAACGGGUCUCUCGUGGGGAGGAUAGAUGUGCUCUGGAACUUUCUGAAGGACCAGCAGCUUCAGGGACUCUUAGUCUGUGGAAUUCUCGGGUGCCAA | 0.315 |
| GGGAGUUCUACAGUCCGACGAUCCAGUCCUCCUACCUCCCGAGUCUGCGGGCAGCUGCUGUCCCAGCAUCUGCUGGUCAUUUCGCCCUGACAGUCCCAACCAGAACCCCUGGGACUUGAAUCCAGAGACGUCCUGGAAUUCUCGGGUGCCAA | 0.317 |
| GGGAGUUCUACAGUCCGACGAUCAUGCAGCUGAUACAUUCUUUUCAGCUUCUUAUUGAUGAUUGUAGAUAGAAAAAUCCUUGUUUAUUCUUCUUGCUGCCUGGCUUUAAUAAAUAUUUCAGAUGCCUCACAGUUGGAAUUCUCGGGUGCCAA | 0.382 |
| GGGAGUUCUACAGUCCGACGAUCUGAGCGACAUAGCCAGUCCGCCUCUGGUCAUGGCAGAACUGAUGCUGGACUUUGGUAUCUGAGGCAGAGGUGAACUGCAGGCCAGUGGCUCCUCUUGGGGAAAUUGUGUAUGGAAUUCUCGGGUGCCAA | 0.622 |
| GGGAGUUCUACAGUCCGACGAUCCUUUGUUCUGGGUCCUUUCGGGAGGGCUGAUGGGCAGCACAGGAGGCCCGUCCUCGGGGGGCUGCGCACAUCACGCUCCUUGCCGGGCGUCCGGCACAGCUGCGGUCACCUGGAAUUCUCGGGUGCCAA | 0.224 |
| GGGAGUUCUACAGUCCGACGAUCAAUGCCCAGGCUUCUUUGUUAUAGUGGCACGCUGGGUUACUUGCCACACACAGAUCACUCCUCCCAGGGCUGCUGGCACACACUGAUUGUGGGGAGUUCAAGAGGCCUUUUGGAAUUCUCGGGUGCCAA | 0.582 |
| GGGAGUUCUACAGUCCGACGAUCGUAGGGUAAGGGAGAGGGACCCUGCCGGUGUUCACUGGGGAUUCUUUCUUUUGGUCCUUCCUGGAAUGAACAGGUUCCCUCCCUGCCACCUGUGAGGAGAGUUGGGGCCCUGGAAUUCUCGGGUGCCAA | 0.298 |
| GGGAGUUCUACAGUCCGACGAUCAAGAUCAGGGGCAAGACAACUCAGCACACCUGGAACCCUUGGGGUCUUUAAGCAGCCGUGUCCAGGCUUCCUGAGAACACCGGCUGCAAACACGGGCAUCCCGGGGAAAGUGGAAUUCUCGGGUGCCAA | 0.776 |
| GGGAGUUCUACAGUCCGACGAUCUGGGGUAUAGAACGCUAAGAAUUUUCCCCCAAGGACUCUUGCUUCCUUAAGCCCUUCUGGCUUCGUUUAUGGUCUUCAUUAAAAGUAUAAGCCUAACUUUGUCGCUAGUCUGGAAUUCUCGGGUGCCAA | 0.316 |
| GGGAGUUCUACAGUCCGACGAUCUUUCUUAAUUUGCAAAUUUCUUCUUAUUUUGGUACUUGGAAUAUAGUGUGAGAUUUUUUAUUUCUAAAUUUUGUUGUAUCUUCUAUUACAUAAAUGCAUUGACAAUUAUAUGGAAUUCUCGGGUGCCAA | 1.65 |
| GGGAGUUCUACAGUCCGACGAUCGAGGUGGCUGAAAGUGGUGUCCAGAUGUCCUUCCGAGGACUCGGCGUAUCCGCCACCAGGGACAUUAAGAAACCGCACGUGAUGUCGCUAUGCUCUAACGAUCACCUCAGUGGAAUUCUCGGGUGCCAA | 3.11 |

Block 3
Target: ABI1, truncated, D143A, DHFR fusion (Arabidopsis thaliana)
Technique: DHFR PCA, deep sequencing
Medium: yeast
Setting: methotrexate growth selection, single substitutions
Added: (+)-ABA 17 µM
Reference: wild-type fitted maximum
Direction: higher = stronger binding
Parent: PYL1, truncated, DHFR fusion (Arabidopsis thaliana); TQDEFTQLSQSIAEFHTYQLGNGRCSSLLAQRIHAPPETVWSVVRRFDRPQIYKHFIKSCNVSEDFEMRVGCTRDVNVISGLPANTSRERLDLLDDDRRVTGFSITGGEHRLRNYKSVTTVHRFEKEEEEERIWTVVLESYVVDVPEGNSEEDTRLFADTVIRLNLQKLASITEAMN
| Change | relative binding score |
| --- | --- |
| E125Y | 87.6% |
| V143T | 66.7% |
| S42H | 64.5% |
| Y115F | 76.3% |
| M176A | 85.4% |
| I33K | -18.4% |
| L164H | 83.6% |
| P83E | 19.7% |
| D159Q | 15.3% |
| T6S | 85.9% |
| K126D | 94.5% |
| L156M | 86.3% |
| V70L | 56.1% |
| A13L | 79.2% |
| F5C | 79.4% |
| L169R | 3.14% |
| A158N | 35.4% |

Block 4
Target: CCNE2, cyclin fold, Cln2 fusion (human)
Technique: yeast growth competition, sequencing
Medium: yeast
Setting: strong parent motif
Reference: not given
Direction: higher = stronger binding
Parent: ANKRD17 docking peptide (human); PSVRRQLFVTVVK; partner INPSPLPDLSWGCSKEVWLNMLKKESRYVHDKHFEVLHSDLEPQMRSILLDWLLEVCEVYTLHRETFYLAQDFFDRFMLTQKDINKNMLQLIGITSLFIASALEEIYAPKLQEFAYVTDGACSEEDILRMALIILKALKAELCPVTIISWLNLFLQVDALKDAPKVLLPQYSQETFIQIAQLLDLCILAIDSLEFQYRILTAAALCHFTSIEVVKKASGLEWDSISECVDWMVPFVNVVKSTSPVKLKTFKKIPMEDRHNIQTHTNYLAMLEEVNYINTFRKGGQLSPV
| Change | normalised enrichment score |
| --- | --- |
| PSARRQLFVTVVK [V3A] | 2.62 |
| PSVRRQLAVTVVK [F8A] | 1.06 |
| PSVRAQAFVTVVK [R5A L7A] | 0.419 |
| PSVRRQLFVAVVK [T10A] | 4.08 |
| PSVRRQLFVTVVA [K13A] | 4.29 |
| PSVRKQLFVTVVK [R5K] | 0.98 |
| PSVRAQLFVTVVK [R5A] | 1.83 |
| PSVARQLFVTVVK [R4A] | 1.91 |
| PSVRKQLLVTVVK [R5K F8L] | 1.47 |
| PSVRRALFVTVVK [Q6A] | 1.51 |
